Measured values collected from several papers.
Compare with care: the assays were run in different laboratories. ± marks the error that the study gave.
Organism: Plasmodium falciparum

For `N#Cc1ccc(C2Sc3ccccc3NC3=C2C(=O)c2ccccc23)cc1` (racemic), the EC50 was greater than 5000 nM (growth, hypoxanthine uptake; Dd2 expressing yeast DHOD).
For `OC(CN1CCC2(CC1)CC(O)c1ccc3ccccc3c1O2)c1ccc(F)c(F)c1` (stereo not drawn), the EC50 was 350 nM (parasite growth, SYBR Green; DD2; 72 h, drug-resistant strain, blood stage).
`CCC12C=C(C(=O)OC)n3c(c(c4ccccc43)CCN(C=CC(=O)OC)CCC1)C2c1ccc(O)cc1` (stereo not drawn) gave an EC50 of 1810 nM (parasite growth, SYBR Green; DD2; drug-resistant strain, blood stage).
With `O=C1C2=C(Nc3ccccc3SC2c2ccc(F)cc2)c2ccccc21` (racemic) the EC50 was greater than 5000 nM (growth, hypoxanthine uptake; Dd2 expressing yeast DHOD).
With `CC[C@@]12CCCN(C#N)[C@@H]1c1c(CCn3cc(-c4cccc(Cl)c4)nn3)c3ccccc3n1[C@](O)(C(=O)OC)C2` the EC50 was 8850 nM (parasite growth, SYBR Green; DD2; drug-resistant strain, blood stage).
With `CC(C)C[C@@H](NC(=O)[C@@H](C)NC(=O)[C@@H](CC(C)C)NC(=O)[C@@H](CCCCN)NC(=O)[C@H](N)CCCCN)C(=O)N[C@H](C)C(=O)N[C@H](CC(C)C)C(=O)N[C@H](C)C(=O)N[C@H](CCCCN)C(=O)N[C@H](CCCCN)C(=O)N[C@H](Cc1c[nH]c2ccccc12)C(=O)N[C@H](CC(C)C)C(=O)N[C@H](C)C(=O)N[C@H](CC(C)C)C(=O)N[C@H](C)C(=O)N[C@H](CCCCN)C(=O)N[C@H](CCCCN)C(=O)N[C@H](CC(C)C)C(=O)N[C@H](C)C(=O)N[C@H](CC(C)C)C(=O)N[C@H](C)C(=O)N[C@H](CC(C)C)C(=O)N[C@H](C)C(=O)N[C@H](CCCCN)C(=O)N[C@H](CCCCN)C(N)=O` the EC50 was 1450 ± 120 nM (SYBR Green fluorescence; 3D7; 48 h, 37 °C).
`CN(C)CCCOc1ccc(C2Sc3ccccc3NC3=C2C(=O)c2ccccc23)cc1` (racemic) gave an EC50 of 570 nM (growth, [3H]hypoxanthine incorporation; Dd2).
For `CCC12CCCN(C=CC(=O)OC)CCc3c(n(c4ccccc34)CC1)C2Oc1ccccc1` (stereo not drawn), the EC50 was 3100 nM (parasite growth, SYBR Green; DD2; drug-resistant strain, blood stage).
`CC(C)C[C@@H](NC(=O)[C@@H](C)NC(=O)[C@@H](CC(C)C)NC(=O)[C@@H](CCCCN)NC(=O)[C@@H](CCCCN)NC(=O)[C@@H](CC(C)C)NC(=O)[C@@H](C)NC(=O)[C@@H](CC(C)C)NC(=O)[C@@H](CC(C)C)NC(=O)[C@@H](Cc1c[nH]c2ccccc12)NC(=O)[C@@H](CCCCN)NC(=O)[C@@H](CCCCN)NC(=O)[C@@H](CC(C)C)NC(=O)[C@@H](C)NC(=O)[C@@H](CC(C)C)NC(=O)[C@@H](CC(C)C)NC(=O)[C@@H](C)NC(=O)[C@@H](CC(C)C)NC(=O)[C@@H](CCCCN)NC(=O)[C@H](N)CCCCN)C(=O)N[C@H](CC(C)C)C(=O)N[C@H](C)C(=O)N[C@H](CC(C)C)C(=O)N[C@H](CCCCN)C(=O)N[C@H](CCCCN)C(N)=O` gave an EC50 of 1950 ± 80 nM (SYBR Green fluorescence; 3D7; 48 h, 37 °C).
`CCC(C)C1NC(=O)C(Cc2ccccc2)NC(=O)C(CCCCCC(=O)C2CO2)NC(=O)C2CCCCN2C1=O` (stereo not drawn) gave an EC50 of 91 nM (parasite growth, SYBR Green; DD2; drug-resistant strain, blood stage).
For `CC(C)C[C@@H](NC(=O)[C@H]1CCCN1C(=O)[C@@H](CC(C)C)NC(=O)[C@@H](Cc1c[nH]c2ccccc12)NC(=O)[C@@H](CCCCN)NC(=O)[C@@H](CCCCN)NC(=O)[C@@H](C)NC(=O)[C@@H](CC(C)C)NC(=O)[C@@H](C)NC(=O)[C@@H](CC(C)C)NC(=O)[C@@H](C)NC(=O)[C@@H](CC(C)C)NC(=O)[C@@H](CCCCN)NC(=O)[C@H](N)CCCCN)C(=O)N[C@H](C)C(=O)N[C@H](CCCCN)C(=O)N[C@H](CCCCN)C(=O)N[C@H](CC(C)C)C(=O)N[C@H](C)C(=O)N[C@H](CC(C)C)C(=O)N[C@H](C)C(=O)N[C@H](CC(C)C)C(=O)N[C@H](C)C(=O)N[C@H](CCCCN)C(=O)N[C@H](CCCCN)C(N)=O`, the EC50 was 2360 ± 100 nM (SYBR Green fluorescence; C10; 48 h, 37 °C).
`O=C1C2=C(Nc3ccccc3SC2c2ccsc2)c2ccccc21` (racemic) gave an EC50 of greater than 5000 nM (growth, hypoxanthine uptake; Dd2 expressing yeast DHOD).
The EC50 of `COC(=O)c1[nH]c(C(=O)OC)c2c1-c1c[nH]c3ccc(Cl)c(c13)[C@]21C=Nc2ccc(Cl)cc21` is reported as 7100 nM (parasite growth, SYBR Green; DD2; 72 h, drug-resistant strain, blood stage).
`CC(C)C[C@@H](NC(=O)[C@@H](C)NC(=O)[C@@H](CC(C)C)NC(=O)[C@@H](CCCCN)NC(=O)[C@@H](CCCCN)NC(=O)[C@@H](CC(C)C)NC(=O)[C@@H](C)NC(=O)[C@H]1CCCN1C(=O)[C@@H](CC(C)C)NC(=O)[C@@H](Cc1c[nH]c2ccccc12)NC(=O)[C@@H](CCCCN)NC(=O)[C@@H](CCCCN)NC(=O)[C@@H](CC(C)C)NC(=O)[C@@H](C)NC(=O)[C@@H](CC(C)C)NC(=O)[C@@H](CC(C)C)NC(=O)[C@@H](C)NC(=O)[C@@H](CC(C)C)NC(=O)[C@@H](CCCCN)NC(=O)[C@H](N)CCCCN)C(=O)N[C@H](CC(C)C)C(=O)N[C@H](C)C(=O)N[C@H](CC(C)C)C(=O)N[C@H](CCCCN)C(=O)N[C@H](CCCCN)C(N)=O` has an EC50 of 880 ± 80 nM (SYBR Green fluorescence; 3D7; 48 h, 37 °C).
The EC50 of `COc1ccc(C2Sc3ccccc3NC3=C2C(=O)c2ccccc23)cc1` (racemic) is reported as 1120 nM (growth, [3H]hypoxanthine incorporation; Dd2).
`Nc1ccc(C(=O)/C=C/c2ccccc2F)cc1` has an EC50 of greater than 200000 nM (parasite growth; 48 h, drug-resistant strain, blood stage).
`COC(=O)c1[nH]c(C(=O)OC)c2c1c1c3cc(Cl)ccc3[nH]c1c1[nH]c3ccc(Cl)cc3c12` has an EC50 of 1000 nM (parasite growth, SYBR Green; DD2; 72 h, drug-resistant strain, blood stage).
`O=C1C2=C(Nc3ccccc3SC2C2CCCCC2)c2ccccc21` (racemic) gave an EC50 of 22 nM (growth, [3H]hypoxanthine incorporation; Dd2).
For `CC(C)C[C@@H](NC(=O)[C@@H](C)NC(=O)[C@@H](CCCCN)NC(=O)[C@H](N)CCCCN)C(=O)N[C@H](C)C(=O)N[C@H](CCCCN)C(=O)N[C@H](C)C(=O)N[C@H](CC(C)C)C(=O)N[C@H](CCCCN)C(=O)N[C@H](Cc1c[nH]cn1)C(=O)N[C@H](Cc1c[nH]c2ccccc12)C(=O)N[C@H](CC(C)C)C(=O)N1CCC[C@@H]1C(=O)N[C@H](C)C(=O)N[C@H](CC(C)C)C(=O)N[C@H](Cc1c[nH]cn1)C(=O)N[C@H](CCCCN)C(=O)N[C@H](CC(C)C)C(=O)N[C@H](C)C(=O)N[C@H](CCCCN)C(=O)N[C@H](C)C(=O)N[C@H](CC(C)C)C(=O)N[C@H](C)C(=O)N[C@H](CCCCN)C(=O)N[C@H](CCCCN)C(N)=O`, the EC50 was 960 ± 70 nM (SYBR Green fluorescence; C10; 48 h, 37 °C).
With `COc1ccccc1C1Sc2ccccc2NC2=C1C(=O)c1ccccc12` (racemic) the EC50 was greater than 5000 nM (growth, [3H]hypoxanthine incorporation; Dd2).
`CC(C)C[C@@H](NC(=O)[C@@H](C)NC(=O)[C@@H](CC(C)C)NC(=O)[C@@H](CCCCN)NC(=O)[C@H](N)CCCCN)C(=O)N[C@H](Cc1c[nH]cn1)C(=O)N[C@H](C)C(=O)N[C@H](CC(C)C)C(=O)N[C@H](CCCCN)C(=O)N[C@H](CCCCN)C(=O)N[C@H](Cc1c[nH]c2ccccc12)C(=O)N[C@H](CC(C)C)C(=O)N[C@H](Cc1c[nH]cn1)C(=O)N[C@H](C)C(=O)N[C@H](CC(C)C)C(=O)N[C@H](CCCCN)C(=O)N[C@H](CCCCN)C(=O)N[C@H](CC(C)C)C(=O)N[C@H](C)C(=O)N[C@H](Cc1c[nH]cn1)C(=O)N[C@H](CC(C)C)C(=O)N[C@H](C)C(=O)N[C@H](CC(C)C)C(=O)N[C@H](CCCCN)C(=O)N[C@H](CCCCN)C(N)=O` has an EC50 of 4430 ± 330 nM (SYBR Green fluorescence; C10; 48 h, 37 °C).

A few entries again:
The EC50 of `COc1ccc(C2Sc3ccccc3NC3=C2C(=O)c2ccccc23)cc1` (racemic) is reported as 1120 nM (growth, [3H]hypoxanthine incorporation; Dd2).
With `COc1ccccc1C1Sc2ccccc2NC2=C1C(=O)c1ccccc12` (racemic) the EC50 was greater than 5000 nM (growth, [3H]hypoxanthine incorporation; Dd2).
